Experimental data collected from several papers.
Numbered parts are unrelated; each lists some results of a single study. Substitutions count along the parent as printed.

Set 1
Target: tungstate, free oxyanion
Method: microfluidic competitive inhibition
Matrix: in vitro, cell-free expressed
Concentration: not given
Notes: derived from inhibition constants, unchanged parent 2230 nM
Reading: lower = stronger binding
Quantity: oxyanion analog dissociation constant
Starting sequence: PafA, mature enzyme, eGFP fusion (Elizabethkingia meningoseptica, UniProt Q9KJX5); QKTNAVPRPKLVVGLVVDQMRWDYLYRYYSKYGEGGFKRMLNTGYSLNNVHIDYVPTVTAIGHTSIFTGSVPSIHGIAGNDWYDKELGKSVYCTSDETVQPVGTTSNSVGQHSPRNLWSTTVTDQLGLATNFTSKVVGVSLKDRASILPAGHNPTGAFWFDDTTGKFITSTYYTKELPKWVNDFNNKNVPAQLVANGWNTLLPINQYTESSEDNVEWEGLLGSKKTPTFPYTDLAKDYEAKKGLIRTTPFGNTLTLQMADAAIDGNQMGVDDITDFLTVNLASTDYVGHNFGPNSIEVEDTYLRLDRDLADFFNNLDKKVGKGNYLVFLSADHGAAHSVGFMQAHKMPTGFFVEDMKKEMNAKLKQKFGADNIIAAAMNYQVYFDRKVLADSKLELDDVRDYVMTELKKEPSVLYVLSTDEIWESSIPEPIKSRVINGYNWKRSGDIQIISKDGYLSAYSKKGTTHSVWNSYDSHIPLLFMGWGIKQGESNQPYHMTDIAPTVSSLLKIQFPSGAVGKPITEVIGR
L11V: 2000 nM
N205V: 2620 nM
V139A: 1630 nM
T226V: 2080 nM
K166G: 2330 nM
I450G: 1100 nM
L11G: 1540 nM
A262V: 2180 nM
P178V: 2110 nM
S504G: 1930 nM
N290V: 2920 nM
K408G: 2150 nM
E354G: 1900 nM
G438V: 868 nM
E86V: 2010 nM
K224G: 1870 nM
K393G: 2150 nM
E218V: 1420 nM
K518G: 1920 nM

Set 2
Target: PABPC1L2, full length, GST fusion (mouse, UniProt A0ABA7IW68)
Method: RNAcompete
Molecule type: RNA
Matrix: in vitro
Concentration: 20 nM
Notes: 7-mer, probes averaged, single round
Relative to: mean of 7-mers
Reading: higher = stronger binding
Quantity: 7-mer Z-score
Construct (chain): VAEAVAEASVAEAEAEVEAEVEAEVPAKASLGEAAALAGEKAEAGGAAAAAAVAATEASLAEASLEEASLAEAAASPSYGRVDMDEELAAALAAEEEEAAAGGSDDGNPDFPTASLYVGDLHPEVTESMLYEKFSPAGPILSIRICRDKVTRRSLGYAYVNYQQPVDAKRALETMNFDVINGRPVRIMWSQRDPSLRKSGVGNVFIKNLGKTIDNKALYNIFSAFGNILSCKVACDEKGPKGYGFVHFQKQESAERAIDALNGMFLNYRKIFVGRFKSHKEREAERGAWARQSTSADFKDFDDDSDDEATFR
UAUCUCC: -0.385
CGCGCAC: -0.329
CUACCGC: -0.295
GCCACUG: -0.213
UCGUUAA: -0.34
AGUAUCG: -0.101
UACCCGC: -0.345
AGGCCGC: -0.124

Set 3
Target: CCND3, cyclin fold, Cln2 fusion (human)
Method: yeast growth competition, sequencing
Matrix: yeast
Notes: weak parent motif
Relative to: not given
Reading: higher = stronger binding
Quantity: normalised enrichment score
Starting sequence: viral docking peptide; TSVRRALFTGGSD; partner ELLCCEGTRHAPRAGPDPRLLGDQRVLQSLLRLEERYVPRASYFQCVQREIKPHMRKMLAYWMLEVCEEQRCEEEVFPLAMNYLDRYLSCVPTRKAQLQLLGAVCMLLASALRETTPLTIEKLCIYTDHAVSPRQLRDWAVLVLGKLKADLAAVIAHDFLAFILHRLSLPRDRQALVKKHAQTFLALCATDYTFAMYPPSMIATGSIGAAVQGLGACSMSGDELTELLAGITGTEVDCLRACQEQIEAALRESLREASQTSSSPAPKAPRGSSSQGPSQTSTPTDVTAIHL
R4Y: 0.277
F8P: 0.076
G11K: 0.616
G10H: -0.212
F8W: -0.0162
G10R: 0.344
V3D: -0.0739
V3G: 0.168
R4Q: 0.12
T9C: -0.0546
G10K: -0.0115
G10N: 0.254
S2W: -0.255
A6N: 0.184
A6T: 0.0324
G10A: 0.161
S2V: -0.151
R5A: 0.12

Further values, each from its own experiment
HSP90AB1 (Homo sapiens, UniProt P08238)  interaction screen (HSP90AB2P (Homo sapiens, UniProt Q58FF8); cross-linking MS; hits only): cross-linked

A few entries again (set 3):
R4Q: 0.12
T9C: -0.0546
G10K: -0.0115
G10N: 0.254
S2W: -0.255
A6N: 0.184
A6T: 0.0324
G10A: 0.161
